Experimental data gathered from unrelated publications.
A part holds a random share of what one study measured.

Series 1
Target: Sal-like protein 4, full length isoform A (SALL4, Homo sapiens, UniProt Q9UJQ4, residues 1-1053)
UniProt Q9UJQ4, sequence (whole entry, looked up): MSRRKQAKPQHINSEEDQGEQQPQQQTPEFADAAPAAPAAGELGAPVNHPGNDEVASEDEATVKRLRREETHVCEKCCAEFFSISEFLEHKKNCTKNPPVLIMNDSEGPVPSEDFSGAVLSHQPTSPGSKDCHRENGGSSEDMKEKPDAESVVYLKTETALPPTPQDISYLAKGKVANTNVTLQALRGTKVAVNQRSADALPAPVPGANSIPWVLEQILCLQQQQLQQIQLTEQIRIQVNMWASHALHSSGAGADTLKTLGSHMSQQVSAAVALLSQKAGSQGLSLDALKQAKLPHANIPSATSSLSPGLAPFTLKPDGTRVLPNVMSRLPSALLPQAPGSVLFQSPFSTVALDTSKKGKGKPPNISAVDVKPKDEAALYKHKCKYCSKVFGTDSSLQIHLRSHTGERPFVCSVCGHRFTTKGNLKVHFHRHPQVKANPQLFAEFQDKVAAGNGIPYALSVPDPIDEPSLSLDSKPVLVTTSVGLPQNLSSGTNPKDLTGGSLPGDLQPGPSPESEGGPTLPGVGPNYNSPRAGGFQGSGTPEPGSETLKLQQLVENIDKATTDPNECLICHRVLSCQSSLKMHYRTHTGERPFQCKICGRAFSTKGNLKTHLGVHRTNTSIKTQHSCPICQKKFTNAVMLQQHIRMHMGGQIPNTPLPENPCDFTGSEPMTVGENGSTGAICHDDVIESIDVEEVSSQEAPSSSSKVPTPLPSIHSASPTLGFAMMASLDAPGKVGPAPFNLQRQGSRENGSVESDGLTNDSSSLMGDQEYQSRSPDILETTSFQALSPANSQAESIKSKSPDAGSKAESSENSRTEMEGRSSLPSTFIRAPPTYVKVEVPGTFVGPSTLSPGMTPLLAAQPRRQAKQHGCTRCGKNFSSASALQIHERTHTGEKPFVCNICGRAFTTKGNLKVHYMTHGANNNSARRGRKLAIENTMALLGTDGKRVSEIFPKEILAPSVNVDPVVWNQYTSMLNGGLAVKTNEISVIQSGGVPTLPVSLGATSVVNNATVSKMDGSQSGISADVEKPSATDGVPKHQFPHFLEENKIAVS
Technique: universal PBM
Form: double-stranded DNA, one strand shown
Sample: in vitro
Tested at: 600 nM
Setting: 8-mer, flanks averaged, mean of replicates
Direction: higher = stronger binding
Measurement: E-score
AGGGCTCC: -0.339
TAAGTTGA: 0.0693
CTACTAAC: 0.0669
ACCTTACC: -0.032
ATCCGAAC: -0.104
TCTAAAGA: 0.122
GGCTCGGA: -0.301
AGTTACAG: 0.0414
ACATAGCA: 0.201
CTTCAGTC: -0.0894
GTGCACTA: 0.0562
TCTCGAAA: 0.0148
TGAGTGCA: -0.0584
AATATCAA: 0.372
ACGATGAA: 0.22

Series 2
Target: Histone acetyltransferase KAT6A, winged helix 1, GST fusion (KAT6A, Homo sapiens, UniProt Q92794, residues 1-85)
Technique: protein binding microarray
Form: double-stranded DNA, one strand shown
Sample: in vitro
Tested at: not given
Setting: 8-mer, flanks averaged, mean of 2 arrays, mostly near background
Relative to: not given
Direction: higher = stronger binding
Measurement: E-score
Residues (chain): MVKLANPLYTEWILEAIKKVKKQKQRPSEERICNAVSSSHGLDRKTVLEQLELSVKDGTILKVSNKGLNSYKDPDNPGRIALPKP
AGTAGACA: -0.0515
TACCCCGA: 0.191
CCCCTGAG: -0.195
CGAGCTCG: -0.141
CGGCCCAC: 0.216
ATGATGGC: -0.0115
TGAAGAAA: -0.0501
ACAGTGAT: -0.207
GATGTGGC: -0.0368
CCCAGGGA: -0.181
ATGGGACG: -0.124
CGTAAATC: 0.0774
AGCGTCAA: 0.0947
AATGGACG: 0.08
CGAGTTTA: -0.0929

Series 3
Target: Prothrombin, mature alpha-thrombin (F2, Homo sapiens, UniProt P00734)
Technique: aptamer microarray, sandwich
Form: DNA with 2'F-ANA
Sample: in vitro
Tested at: 200 nM
Setting: whole 15-mer aptamer, many near background
Added: Cy3 exosite-II aptamer, 400 nM
Direction: higher = stronger binding
Measurement: mean fluorescence intensity
Oligonucleotide: GGTTGGTGTGGTTGG
2'F-ANA at 2 3 14: 495 a.u.
2'F-ANA at 3 4 5 9 12 13 14: 318 a.u.
2'F-ANA at 1 2 3 8 10 11 14 15: 51.7 a.u.
2'F-ANA at 3 5 6 8 12 14: 67.1 a.u.
2'F-ANA at 3 4 5 6 7 10 11 15: 52.8 a.u.
2'F-ANA at 2 7 8 9 10 14 15: 87.7 a.u.
2'F-ANA at 2 3 6 7 8 11: 743 a.u.
2'F-ANA at 2 3 5 6 10 14: 54.4 a.u.
2'F-ANA at 1 2 4 6 7 8 9 10 12 13: 56.6 a.u.
2'F-ANA at 2 5 7 8 9 10 11: 108 a.u.
2'F-ANA at 2 3 4 5 6 8 9 12 13 15: 109 a.u.
2'F-ANA at 2 4 6 8 9 12 14 15: 110 a.u.
2'F-ANA at 1 2 4 6 7 9 10: 49.3 a.u.
2'F-ANA at 2 5 10 14 15: 43.5 a.u.
2'F-ANA at 1 5 7 9 11 15: 54.6 a.u.
2'F-ANA at 2 4 6 7 10 11 12 13 14 15: 58.8 a.u.

Series 4
Target: Centromere-binding protein 1, full length, N-terminal tag (CBF1, Saccharomyces cerevisiae, UniProt P17106, residues 1-351)
UniProt P17106, sequence (whole entry, looked up): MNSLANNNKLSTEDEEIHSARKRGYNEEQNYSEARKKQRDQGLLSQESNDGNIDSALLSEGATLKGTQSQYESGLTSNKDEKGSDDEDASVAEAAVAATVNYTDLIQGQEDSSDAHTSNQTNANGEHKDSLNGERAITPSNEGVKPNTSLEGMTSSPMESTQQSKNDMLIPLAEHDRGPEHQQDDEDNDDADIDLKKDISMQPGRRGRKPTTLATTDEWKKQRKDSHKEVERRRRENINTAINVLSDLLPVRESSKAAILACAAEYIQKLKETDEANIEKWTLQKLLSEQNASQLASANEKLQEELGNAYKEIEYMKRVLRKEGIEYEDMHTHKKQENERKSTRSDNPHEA
Technique: protein-binding microarray
Form: double-stranded DNA, one strand shown
Sample: in vitro
Tested at: 0.8 µM
Setting: whole 60-bp probe, no competitor
Direction: higher = stronger binding
Measurement: fluorescence intensity
Shared flanks, not repeated: … GTCTTGATTCGCTTGACGCTGCTG
GAACATATCAAGAGACACGTCACGACACAACACTAG: 926 a.u.
CTAACCACATAATTCCACGTTGGCGGCATCACTTTC: 535 a.u.
GAAAACCTGGCCACGAACGTGTGGTGGGCTAGTTAG: 510 a.u.
CTATCTCTCAGCCGCCATCACTTCCACACAGGCTTC: 524 a.u.
CTAAAACGTAAGTGTCACCCTTCTTCAAGATACTTC: 539 a.u.
GAATCCAACTAGAGTCACGGTTTTTCAAAGTCTTAG: 675 a.u.
CTAAGTTAGTTCTGCCACGCCATTTTAAGTCCATTC: 559 a.u.
CTAAGAAGTAGATAAATCACCACGAATCATTTGTTC: 543 a.u.
TGTACGAAGCTATGCATCACCGTTATAGTAGTTAGG: 511 a.u.
GAAACGAATAGTCATGATGCAATGTACCCTCATTAG: 545 a.u.
CTATTAGGATGAAGAGGTGACATATAATGTTTCTTC: 508 a.u.
GAATGCTGCTATGCGCACGATGAGCAAATCGGATAG: 502 a.u.
GAATGTATGTAAACTCTGATGTAGGATCGCACTTAG: 529 a.u.
GAACATTAGACTACACGTGCAGCATATACCAACTAG: 8710 a.u.
GAAAGGTATAGGCGTGATGCCATGGGAGGGGCATAG: 667 a.u.
CTAAATAGTAATTGTCACGCAATATCTTGTGGATTC: 609 a.u.
GAAAGAAGAAATAATCACGTTAGGCATCCAAGATAG: 690 a.u.

Series 5
Target: Hepatocyte nuclear factor 3-alpha (Foxa1, Mus musculus, UniProt P35582, residues 1-468, full length assumed)
Technique: EMSA with sequencing
Form: double-stranded DNA, one strand shown
Sample: in vitro
Tested at: 10 and 20 nM
Setting: whole designed probe, mean of two concentrations, ends assumed
Relative to: negative control set to 0
Direction: higher = stronger binding
Measurement: normalised bound fraction
Shared flanks, not repeated: GTGAGCGGTGCCCATTGATGGGGAAC … TTTCACTGGGATCGTGGGGAC
Construct (chain): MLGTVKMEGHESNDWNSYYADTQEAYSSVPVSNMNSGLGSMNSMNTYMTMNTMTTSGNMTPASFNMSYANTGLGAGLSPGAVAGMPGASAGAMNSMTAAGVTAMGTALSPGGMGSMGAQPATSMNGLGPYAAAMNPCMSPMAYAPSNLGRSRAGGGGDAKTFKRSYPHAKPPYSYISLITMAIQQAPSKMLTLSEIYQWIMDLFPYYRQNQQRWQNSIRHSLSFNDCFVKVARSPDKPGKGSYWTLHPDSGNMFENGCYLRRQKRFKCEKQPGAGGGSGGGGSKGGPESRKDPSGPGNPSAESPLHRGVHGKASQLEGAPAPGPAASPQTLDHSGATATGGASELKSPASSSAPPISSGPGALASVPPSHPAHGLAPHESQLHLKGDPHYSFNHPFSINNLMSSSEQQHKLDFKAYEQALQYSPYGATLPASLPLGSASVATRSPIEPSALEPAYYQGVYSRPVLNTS
AACTAACCCAGTCCCAGGAGAACTGCATTAATCCCTTTGTGAGGGCGAAGTCCCTATGACTCACCTCTTAAAGGTCCTATTACCTCTCCATACTGTTGACATTGGCAATTAAATTTCAACATGAGTTTTGGTAGAGACAAACCACATCCAAACCATAGCAATAGTAAAGGTGTCCCCTGCTCCCCTCCTCCAC: 0.206 ratio
TCTGCGTCTAGCTCTGGAGCTCAGACTGGAACTGCTCAGCAGGAAACAGGTCTTGCTGCTAGTAAATTACCATGACTGTGTTTACATGGTGAGTCATCTGGCATAGGTCAGCTCTCCTTCTCTCCAAGCAGTCCCTTGAGCTGATGATTTATCTGGGTAAATCACATTCCAAATCAATTTTATTTTTGGCTGT: 0.129 ratio
CAATGGGGTAGGTCAGCCCCAGTGAACTCTCAAATGACCACTGAAGGAGGAAGTGAGTGCAGAGTGTGATACCACTCACATCCCAGCCCAGACTGTTTGCTCAGCTGGGAGGTTCTTCCTGCAAGTGTTGCAATTCGAGATAACACCCCTTCTCATGGCTTCAGGCATCACCTATCTCCTCTAGGCTGCGCTC: 0.196 ratio
ATGTGCTAAAAATACAAGACTTGCTTACGCAGAGAGCCGGGAGCTATGTTCCAGTGAGGGTGGAAACAAAAGCCTCAGTATAAGACTGTCAGGTGTTTACACAAGCGTCTGGTTTGCTCATGTGGCAACACGAGGTTGCTGGACTCCACATGCTGAGGCTCAAAGTAGAAATCACTGATCTTATGTCACATAT: 0.409 ratio
CAGCCTGCAGTGCGCTCAGTTAAACAATTCCAAATCAAGGAATTTTGTCTGATACAAGGAATTTGGGGTGTGTTTTCCTAACATGCACCCTGGGTAAATAGACTGCATTTCCTGACCCAGCTGAGGGGGGGGGGCAGCCAATATGCATTGCGGCCACAAGGTGGCGCGTCTGGGCCTGGCAAACCCCTGTGCT: 0.234 ratio
TAACCTGAGAGTATTTTTTGGTCGTACAGGAAGTGTATCACATCTTTGCTTGCAGGTGATTATTTTTCCTAATTTAATTAGGCCCATAAAATGTAAACAAGCAACTGGGGCTCAGTCATTATTAATTTAGAATATAGACTCAAGAGATGCTGGAACTATAAAGGCAGAAGAATGCATTCTTGACATAGGTAAA: 0.335 ratio
GCTCCTCACCCCCAACTGGGGGCCTGAGTAGGGACAGCACAGAGGCTGGTGCCTGCTGCTCTTCAGTCTCTGTTTCCACGGCTCAAACCAAAGTAATCTACAGAATGGCCATGTAGGTGCAAAGTACCAATGACAGCATGGACCCTTGGGTGGGCTCCAACACTCACCCTAATAAAGCTGGGGAGGAAGGGGC: -0.0811 ratio

Series 6
Target: RING finger protein unkempt homolog, zinc fingers 1-6, SBP tag (UNK, Homo sapiens, UniProt Q9C0B0, residues 30-357)
UniProt Q9C0B0, sequence (30-357, looked up): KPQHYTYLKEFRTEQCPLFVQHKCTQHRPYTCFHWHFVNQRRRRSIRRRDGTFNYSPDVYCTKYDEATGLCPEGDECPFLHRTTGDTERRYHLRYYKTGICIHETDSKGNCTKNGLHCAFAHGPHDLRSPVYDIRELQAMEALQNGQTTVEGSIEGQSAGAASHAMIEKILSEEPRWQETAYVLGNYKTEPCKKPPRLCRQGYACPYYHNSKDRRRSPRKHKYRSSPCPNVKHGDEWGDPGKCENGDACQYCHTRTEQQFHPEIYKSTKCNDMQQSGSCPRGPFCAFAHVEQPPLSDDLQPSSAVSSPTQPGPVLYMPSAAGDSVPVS
Technique: RNA Bind-n-Seq
Form: RNA
Sample: in vitro
Tested at: 100 nM
Setting: RNA with constant flanks, vertebrate orthologous sites, ends assumed
Relative to: input RNA pool
Direction: higher = stronger binding
Measurement: bound/input enrichment
Shared flanks, not repeated: GGGAGUUCUACAGUCCGACGAUC … CAACAGAGGAUUGAGCAUCA
CCCCGUUUUUAAAUGCUCUUUUGAUGCUUCCGGCAGCGCCAUUUGUACAGUUUUUCUCUAAAAACAAAAAUGUUGAUUCGAAUUUCUUGUAUUUAAGUUUAAAUUGUUACAACAUUUUAG: 0.359 ratio
GCACAUGCCGCUAUCACCAAAAGCAAACUACCACUUCUCAAAUUUCAUUCAGAGCUGUUUUCGUGUUUCCUAUUCCCCACCCUUUCCACUACUUUCAAUGAUCAAACAUCCUAAGUUCUC: 1.4 ratio
UAUAAUUAUGAAAAUCUAAAGGAUUUUUACUGUUUAAUUUCCCCCAGCAUAUAUAUUAAGACCUCUUUUUUUUCCAGGCAGAUCAUUCAGAGUGUGCGAGUGUGUGUGCACAUGUUACAA: 0.822 ratio
UCGGUCCCCUGGGCUGGGACAGAUUUUUUUUAACGUCUUGAAAUUUAAAUUCUGUGCUUGUAGGAGACUGUAACCUUUUUGUCUUUUUUUUUUUAAACAAAACAACCUCCACCUCCAGUG: 0.394 ratio
CUCUAUGUAGAAAACAAUUUUCACUGAAGCCAUUGUCAAGUUUUUCCCCCUAGAUUUUCAUUUGGAGCUCUUUAAUUUUAUACAAGCUUGCUGUGUUGGUCAUCAUUAGCCCAGAGGUAA: 0.964 ratio

Some of these lines once more (series 4):
CTAACCACATAATTCCACGTTGGCGGCATCACTTTC: 535 a.u.
GAAAACCTGGCCACGAACGTGTGGTGGGCTAGTTAG: 510 a.u.
CTATCTCTCAGCCGCCATCACTTCCACACAGGCTTC: 524 a.u.
CTAAAACGTAAGTGTCACCCTTCTTCAAGATACTTC: 539 a.u.
GAATCCAACTAGAGTCACGGTTTTTCAAAGTCTTAG: 675 a.u.
CTAAGTTAGTTCTGCCACGCCATTTTAAGTCCATTC: 559 a.u.
CTAAGAAGTAGATAAATCACCACGAATCATTTGTTC: 543 a.u.
TGTACGAAGCTATGCATCACCGTTATAGTAGTTAGG: 511 a.u.
GAAACGAATAGTCATGATGCAATGTACCCTCATTAG: 545 a.u.
CTATTAGGATGAAGAGGTGACATATAATGTTTCTTC: 508 a.u.
GAATGCTGCTATGCGCACGATGAGCAAATCGGATAG: 502 a.u.
